Experimental data gathered from unrelated publications.
Compare with care: the assays were run in different laboratories. Values joined by “and” are separate records of one study, mostly repeats; a detail may differ.
Target: NUAK family SNF1-like kinase 2 (NUAK2, Homo sapiens, UniProt Q9H093)

| Structure (SMILES) | test | setting | scale | endpoint | value |
| --- | --- | --- | --- | --- | --- |
| CCn1cc(C(=O)O)c(=O)c2c(N)c(F)c(NC3CCCCC3)cc21 | kinase activity | 0.1 µM, together with: ATP at Km |  | inhibition | 0.7% |
| C=CC(=O)N1Cc2nc(-c3cc(-c4cc(Cl)cnc4Cl)c(F)cc3F)n(-c3ccncn3)c2C1 | cell-free assay, inhibitor | 1 µM |  | inhibition | 3.1% |
| CCN1CCN(Cc2ccc(C(=O)Nc3ccc(C)c(NCc4cnc5[nH]ccc5c4OC)c3)cc2C(F)(F)F)CC1 | binding, competition with immobilised ligand | 1 µM |  | remaining binding | 54% |
| COc1ccc(NC(=O)Nc2ccc3c(c2)C(=O)N(C(C)CO)CC(C)C(CN(C)Cc2ccc4c(c2)OCO4)O3)cc1 (stereo not drawn) | binding, competition with immobilised ligand | 10 µM |  | remaining binding | 72% |
| COCC12C(=O)NC3C4(C(OC)CC1O)C1CC5(O)C(OC)C(O)C(OC(C)=O)(C1C5OC(=O)c1ccccc1)C3(O)C(OC)C24 (stereo not drawn) | kinase activity, inhibitor, ProQinase kinase profiling | 25 µM | reference: control | remaining activity | 105% and 106% |
| COc1cc(Nc2nc(C)cc(-c3cnn4nc(OC)ccc34)n2)cc(C(F)(F)F)c1 | binding, competition with immobilised ligand | 1 µM |  | remaining binding | 93% |
| CN1CCN(Cc2ccc(NC(=O)c3cccc(C#Cc4cnc(N)c5ncccc45)c3)cc2C(F)(F)F)CC1 | cell-free assay, competition with immobilised ligand | 50 nM |  | remaining binding | 74% |
| CNC1C[S+]2CC[S+]3CC[S+](C1)[Ru-4]321([N]=C=S)[n]2c3ccc(OC)cc3c3c4c(c5cc(F)c[n+]1c5c32)C(=O)NC4=O (stereo not drawn) | KinomeScan | 0.1 µM | reference: untreated | remaining binding | 80% |
| NC(=O)[C@@H](O)C[C@H]1CCc2sc3ncnc(O[C@H]4CC[C@H](N5CCOCC5)CC4)c3c21 | enzyme activity, inhibitor | 10 µM |  | inhibition | 4% |
| Cc1cnc2nc1Nc1cccc(c1)COC/C=C/COCc1cc(ccc1OCCN1CCOCC1)N2 | cell-free assay | 0.1 µM |  | remaining signal | 65% |
| CN1CC[C@@H](COc2cnc(C#N)cc2-c2ccn3nc(NC(=O)C4CC4)cc3c2)C1 | enzyme activity, inhibitor | 1 µM |  | inhibition | -4% |
| Nc1ncc2c(n1)-c1c([nH]c3ccc(C4=CCOCC4)cc13)CCC2 | binding, competition with immobilised ligand | 1 µM |  | remaining binding | 100% |
| C=C1CCCCCCCCCC(CO)C1=O (stereo not drawn) | cell-free assay, competition with immobilised ligand | 10 µM |  | remaining binding | 82% |
| CC(=O)N1c2ccc(-c3ccc(CNC(=O)c4cn5cc(-c6cnc(N)nc6)nc(N6CCOCC6)c5n4)cc3)cc2CC[C@@H]1C | KINOMEscan | 10 µM |  | remaining binding | 87% |
| C[C@]1(O)CCCN(c2nc(Nc3ccc(S(=O)(=O)N[C@H]4CC[C@H](CN5CCN(c6ccc(C7CCC(=O)NC7=O)cc6F)CC5)CC4)cc3)ncc2C(F)(F)F)C1 (stereo partly drawn) | binding, competition with immobilised ligand | 1 µM |  | remaining binding | 5.6% |

For quick reference, copied from above:
| Structure (SMILES) | test | setting | scale | endpoint | value |
| --- | --- | --- | --- | --- | --- |
| C[C@]1(O)CCCN(c2nc(Nc3ccc(S(=O)(=O)N[C@H]4CC[C@H](CN5CCN(c6ccc(C7CCC(=O)NC7=O)cc6F)CC5)CC4)cc3)ncc2C(F)(F)F)C1 (stereo partly drawn) | binding, competition with immobilised ligand | 1 µM |  | remaining binding | 5.6% |
